Measured values pooled from the literature.
A part holds a random share of what one study measured. Substitutions count along the parent as printed.

Set 1
Target: Histone acetyltransferase KAT6A, winged helix 1, GST fusion (KAT6A, Homo sapiens, UniProt Q92794, residues 1-85)
Technique: protein binding microarray
Form: double-stranded DNA, one strand shown
Sample: in vitro
Tested at: not given
Notes: 8-mer, flanks averaged, mean of 2 arrays, mostly near background
Relative to: not given
Reading: higher = stronger binding
Endpoint: E-score
Construct (chain): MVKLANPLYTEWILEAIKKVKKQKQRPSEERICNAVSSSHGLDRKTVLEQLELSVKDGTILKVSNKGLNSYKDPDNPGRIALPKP
CTGACCTA: -0.155
TCGAACCA: -0.0862
ACGTAGCT: -0.0747
GGCAGCGA: 0.25
ATGTTCAC: -0.215
ATCTGAAG: -0.179
GCCCAGTA: -0.188
AGAAAAGC: 0.0129
GATCACCC: -0.103
GTAGAGGA: -0.249

Set 2
Target: Interferon regulatory factor 5, full length, phosphomimetic (IRF5, Homo sapiens, UniProt Q13568-2, residues 1-514, S451D/S453D/S456D/S462D)
Technique: protein-binding microarray
Form: double-stranded DNA, one strand shown
Sample: in vitro
Tested at: 940 nM top
Notes: 60-bp whole probe
With: salmon DNA 0.4 mg/ml
Relative to: random background probes
Reading: higher = stronger binding
Endpoint: fitted relative affinity
Shared flanks, not repeated: GCCTAGCAC … GTGCTAGGTCTTGATTCGCTTGACGCTGCTG
TCAACTTCCCAATTGTCACT: 0.589 z-score
GACGGTTACGGTTCCGGGAC: 0.658 z-score
TTACGTTTCGGACTGGGTTA: 3.72 z-score
TCATGTTTCCTCTTTCTACT: 1.74 z-score
GACGGACTGGGTTTGGGGAC: -0.297 z-score
GACGATCTTAGTATCGAGAC: 2.04 z-score
TTAGGACTGCGACTGGGTTA: -0.355 z-score

Set 3
Target: CCNA1, cyclin fold, Cln2 fusion (human)
Technique: yeast growth competition, sequencing
Sample: yeast
Notes: weak parent motif
Relative to: not given
Reading: higher = stronger binding
Endpoint: normalised enrichment score
Parent: ORC1 docking peptide (human); PRARKRLELGNLG; partner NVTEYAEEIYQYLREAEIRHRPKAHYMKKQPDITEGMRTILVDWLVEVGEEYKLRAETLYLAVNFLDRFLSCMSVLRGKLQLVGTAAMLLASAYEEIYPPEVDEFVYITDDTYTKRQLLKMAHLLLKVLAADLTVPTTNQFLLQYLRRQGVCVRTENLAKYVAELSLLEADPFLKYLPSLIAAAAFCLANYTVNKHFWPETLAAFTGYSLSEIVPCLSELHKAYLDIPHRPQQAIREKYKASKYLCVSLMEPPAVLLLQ
PRAQKRLELGNLG [R4Q]: 0.189
LRARKRLELGNLG [P1L]: 0.467
PRARKRLENGNLG [L9N]: 0.318
PRAVKRLELGNLG [R4V]: 0.295
PRARKRLELGNGG [L12G]: 0.159
PRARKRLELCNLG [G10C]: 0.33
PRRRKRLELGNLG [A3R]: 0.185
ERARKRLELGNLG [P1E]: 0.652

Mixed results
PhoQ, residues 284 288 289 292 302 303 TNSAEL  fold induction (PhoP, residues 12 14 15 18 19 QWHVF (Escherichia coli, UniProt P23836); Sort-seq, measured: YFP reporter; E. coli; PhoQ-PhoP variant library, with: 10 µM Mg2+; relative to: high Mg2+ state, higher = stronger signaling): 2.63

Some of these lines once more (set 3):
LRARKRLELGNLG [P1L]: 0.467
PRRRKRLELGNLG [A3R]: 0.185
ERARKRLELGNLG [P1E]: 0.652
